Assay results from different studies.
Several values in a cell are separate wells, animals, samples, runs or records.
Target: Casein kinase II subunit alpha' (CSNK2A2, Homo sapiens, UniProt P19784)

The remaining binding of CCN1CCN(Cc2ccc(C(=O)Nc3ccc(C)c(NCc4cnc5[nH]ccc5c4OC)c3)cc2C(F)(F)F)CC1 is reported as 69% (binding, competition with immobilised ligand; 1 µM).
CC(C)=CC1OC(C)(C)C2C=C3C(=O)C(Cl)=CC(O)C3C3C(O)C4OC4C(=O)C132 (centres unmarked) gave a remaining binding of 92% (cell-free assay, competition with immobilised ligand; 10 µM).
The remaining binding of Cc1ccc(-c2c(/C=C(\C#N)C(=O)NC(C)C)n(CCCO)c3ncnc(N)c23)cc1 is reported as 100% (cell-free assay, competition with immobilised ligand; 1 µM).
With CNC(=O)C1CCN(c2cc(C)c(F)cc2NC(=O)c2ccc(-c3cc(O)ccc3C)c(C)c2)CC1 the remaining binding was 100% (binding, competition with immobilised ligand; 1 µM).
CN1CC[C@@H](COc2cnc(C#N)cc2-c2ccn3nc(NC(=O)C4CC4)cc3c2)C1 has an inhibition of 8% (inhibitor, KinaseProfiler panel; 1 µM).
The remaining binding of COc1c(Cl)cccc1Nc1c(-c2ccncc2C#C[C@@]2(C)CCCN2C(=O)/C=C/CN(C)C)[nH]c2c1C(=O)NCC2 is reported as 94% (cell-free assay, competition with immobilised ligand; 3 µM).
C=CC(=O)N1CCc2ccc(-n3c(=O)ccc4cnc5ccc(-c6cnn(C)c6)cc5c43)cc21 gave a remaining binding of 64% (KINOMEscan; 1 µM; reference: DMSO control).
With COCC12C(=O)NC3C4(C(OC)CC1O)C1CC5(O)C(OC)C(O)C(OC(C)=O)(C1C5OC(=O)c1ccccc1)C3(O)C(OC)C24 (centres unmarked) the remaining activity was 97% and 100% (kinase activity, inhibitor, ProQinase kinase profiling; 25 µM; reference: control).
Cc1cnc2nc1Nc1cccc(c1)COC/C=C/COCc1cc(ccc1OCCN1CCOCC1)N2 has a remaining binding of 13% (binding; 0.1 µM).
NC(=O)[C@@H](O)C[C@H]1CCc2sc3ncnc(O[C@H]4CC[C@H](N5CCOCC5)CC4)c3c21 has an inhibition of 24% (enzyme activity, inhibitor; 10 µM).
The remaining activity of COc1c(OCCCN2CCOCC2)ccc2c1N=C(NC(=O)c1cnc(N)nc1)N1CCN=C21 is reported as 109% (kinase activity, inhibitor; 1 µM; reference: untreated control).
The remaining binding of CNC1C[S+]2CC[S+]3CC[S+](C1)[Ru-4]321([N]=C=S)[n]2c3ccc(OC)cc3c3c4c(c5cc(F)c[n+]1c5c32)C(=O)NC4=O (centres unmarked) is reported as 78% (KinomeScan; 0.1 µM; reference: untreated).
The remaining binding of COc1cc(Nc2nccc(-c3cnn4nc(OC)ccc34)n2)cc(C(F)(F)F)c1 is reported as 65% (binding, competition with immobilised ligand; 1 µM).
With C=CC(=O)N1Cc2nc(-c3cc(-c4cc(Cl)cnc4Cl)c(F)cc3F)n(-c3ccncn3)c2C1 the inhibition was 8.2% (cell-free assay, inhibitor; 1 µM).

Repeated from above:
The remaining activity of COc1c(OCCCN2CCOCC2)ccc2c1N=C(NC(=O)c1cnc(N)nc1)N1CCN=C21 is reported as 109% (kinase activity, inhibitor; 1 µM; reference: untreated control).
